# Results collected from several papers.
# Every numbered part comes from another study and shows a few of its results, in no order. Substitutions count along the parent as printed.

# Study 1
# Target: RING finger protein unkempt homolog, zinc fingers 1-6, GST-SBP tag (UNK, Homo sapiens, UniProt Q9C0B0, residues 30-357)
# UniProt Q9C0B0, sequence (30-357, looked up): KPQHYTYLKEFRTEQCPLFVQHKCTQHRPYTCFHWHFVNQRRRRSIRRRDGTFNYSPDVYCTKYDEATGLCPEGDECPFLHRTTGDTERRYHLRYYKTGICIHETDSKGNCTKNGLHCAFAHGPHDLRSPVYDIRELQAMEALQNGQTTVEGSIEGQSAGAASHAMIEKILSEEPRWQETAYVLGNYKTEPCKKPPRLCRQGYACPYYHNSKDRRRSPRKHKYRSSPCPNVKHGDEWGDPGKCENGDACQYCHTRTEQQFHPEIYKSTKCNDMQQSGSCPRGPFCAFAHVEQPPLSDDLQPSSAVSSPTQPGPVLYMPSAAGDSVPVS
# Method: RNA Bind-n-Seq
# Form: RNA
# Medium: in vitro
# Concentration: not given
# Setting: RNA with constant flanks, human-mouse chimeric sites, ends assumed
# Baseline: input RNA pool
# Reading: higher = stronger binding
Sequence,bound/input enrichment
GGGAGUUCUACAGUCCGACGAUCCUGGCCUGGCCCUCCCCAGGGGCCUCCUUUCGUAUAGUCACUGCUUCUGCUACGGAUACUUUCAGCUGCAACUCCCUACUGGGUGGGGCACCUAUCUCAGGCAGAAGGUUUUGGUACCCUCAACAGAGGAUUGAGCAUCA,0.157 ratio
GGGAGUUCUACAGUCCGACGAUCACUCAGAGAUUAUAUUCCCAAAGUGCUGGGAGUAAAGGUGUGGCCACCACACCUAACUUGAUGGAUAUAUAUUUUUUUUAAUAUGAAUCUUCCUGUUCUUCAUCCAGAGAAAGAUUUGUUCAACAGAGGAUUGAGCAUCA,0.427 ratio
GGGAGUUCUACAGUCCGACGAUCCCUGCUCAGAUCACCAUGAAAGUAAUCCAAGGCUUGUACAGUGGGGUCACCACAGUGGAACUGGACACCCUGGCUGCUGAGACAGCCGCGACCUUGACCACGAAGCACCCUGACUAUGCCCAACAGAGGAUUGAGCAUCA,0.125 ratio
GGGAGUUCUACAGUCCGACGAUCCAGCUGCAGACAGAAAAGGAUGAGAAGGAGCUGUAUAAGGUACAUUUGAAGAAUACAGAAAUAGAAAAUACGAAGCUUGUGUCAGAGGUCCAGACUUUAAAGAAUUUAGAUGGGAACAAACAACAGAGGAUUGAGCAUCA,2.9 ratio
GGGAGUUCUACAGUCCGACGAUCUAAGUCCUGUGCCAGCACUUCGCUCAUAAAGUUUUAAAUUCUGGACCAAUAGUGUUUGUUUCCUGAUUAUUGUAUCCAAUACUUUGCGUACUAUGUGACUCACUCUUACUGAUAAUAAAACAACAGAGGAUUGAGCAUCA,1.11 ratio
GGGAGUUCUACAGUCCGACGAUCGUGACAGGUGUUAAGAUUUCCCCUCAGCAAAGAAGUGUAGCAGUGACCAUAAUUCCAUCUGUGGUGAGUGCCAGUCAGAUUGUGGAGCUGGUCCCAGACCUCAGUUUAGACAUGGGAACUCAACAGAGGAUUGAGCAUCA,0.378 ratio
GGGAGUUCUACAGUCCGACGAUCAGAGCCCAGGAUGUUGAUGCUACAAAUCCAAAUUACGAAAUUAUGUGUAUGAUCAGAGACUUCAGAGGGAGCUUGGAUUAUAGACCACUAACAACAGCAGAUCCUAUUGAUGAACAUAGGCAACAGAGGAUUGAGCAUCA,0.489 ratio
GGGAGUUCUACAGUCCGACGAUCAUCAAAUACUUUGGGGAUAUUAUUAGCGUGGGACAGAGACUGUUGCAAGGAGCUCGGAUCUUAGGGAUUCCUGUUAUCAUAACGGAACAAUACCCCAAAGGACUUGGCAGCACCGUUCAACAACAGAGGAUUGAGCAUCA,0.26 ratio

# Study 2
# Target: ABI1, truncated, D143A, DHFR fusion (Arabidopsis thaliana)
# Method: DHFR PCA, deep sequencing
# Medium: yeast
# Setting: methotrexate growth selection, single substitutions
# With: (+)-ABA 17 µM
# Baseline: wild-type fitted maximum
# Reading: higher = stronger binding
# Starting sequence: PYL1, truncated, DHFR fusion (Arabidopsis thaliana); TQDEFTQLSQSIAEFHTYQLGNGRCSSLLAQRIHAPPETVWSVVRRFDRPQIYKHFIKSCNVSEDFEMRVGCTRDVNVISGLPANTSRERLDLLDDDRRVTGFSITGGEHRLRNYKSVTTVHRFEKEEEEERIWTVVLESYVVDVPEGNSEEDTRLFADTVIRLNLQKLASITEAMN
Variant,relative binding score
V43S,5.66%
R111M,52.9%
L94H,75.7%
S26Y,68.3%
E64Y,66%
R69H,75.5%
L138H,33.6%
D92P,-7.75%
R99I,-7.26%
E64S,84.6%
T6I,80.8%
S59R,69.9%
E147M,73.3%
F66R,63.5%
T6N,80%
V136C,73.1%
D97F,71.8%

# Study 3
# Target: Sal-like protein 4, full length isoform B (SALL4, Homo sapiens, UniProt Q9UJQ4-2, residues 1-616)
# Method: universal PBM
# Form: double-stranded DNA, one strand shown
# Medium: in vitro
# Concentration: not given
# Setting: 8-mer, flanks averaged, mean of replicates
# Reading: higher = stronger binding
# Construct (chain): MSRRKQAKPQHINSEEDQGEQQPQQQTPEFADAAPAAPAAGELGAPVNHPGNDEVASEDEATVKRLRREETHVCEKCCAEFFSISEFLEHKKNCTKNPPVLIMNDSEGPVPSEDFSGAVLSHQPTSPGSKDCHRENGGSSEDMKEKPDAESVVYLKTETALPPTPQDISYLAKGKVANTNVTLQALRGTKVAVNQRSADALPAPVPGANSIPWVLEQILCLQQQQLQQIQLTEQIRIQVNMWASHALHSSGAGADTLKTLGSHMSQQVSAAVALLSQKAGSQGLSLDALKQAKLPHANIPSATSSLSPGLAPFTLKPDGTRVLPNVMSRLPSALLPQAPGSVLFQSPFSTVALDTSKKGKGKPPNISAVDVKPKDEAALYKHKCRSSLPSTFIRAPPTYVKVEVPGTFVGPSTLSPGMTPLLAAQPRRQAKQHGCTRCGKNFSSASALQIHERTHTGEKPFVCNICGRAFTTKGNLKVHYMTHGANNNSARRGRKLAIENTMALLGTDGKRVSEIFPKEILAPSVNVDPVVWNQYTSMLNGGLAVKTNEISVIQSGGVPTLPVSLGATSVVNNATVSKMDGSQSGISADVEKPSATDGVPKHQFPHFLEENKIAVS
Sequence,E-score
AACGCACG,0.0482
AATGGACC,0.00732
CAAGTTCG,-0.151
CATCACTA,0.225
GAACCAAC,-0.0459
CCACAAAA,0.0648
ATTGCGTG,-0.0565
AGGGTGAA,-0.0626
TCGTGTAA,0.0889
CGGCTTAG,-0.217
CCGTCAAA,-0.0125
CTTTCAGA,-0.051
ACCAAAGA,0.145
ATACGCAG,-0.00105
ATCCGCGG,-0.224
ATCTTAAT,0.231
CCCTTGGC,-0.338
ACTTCAAA,0.106
AGGAAGTG,-0.0931
CACACCAG,-0.0497
ATCTCTAC,0.0126

# Study 4
# Target: CCND3, cyclin fold, Cln2 fusion (human)
# Method: yeast growth competition, sequencing
# Medium: yeast
# Setting: weak parent motif
# Baseline: not given
# Reading: higher = stronger binding
# Starting sequence: MASTL docking peptide (human); PMIAKNLMCELDE; partner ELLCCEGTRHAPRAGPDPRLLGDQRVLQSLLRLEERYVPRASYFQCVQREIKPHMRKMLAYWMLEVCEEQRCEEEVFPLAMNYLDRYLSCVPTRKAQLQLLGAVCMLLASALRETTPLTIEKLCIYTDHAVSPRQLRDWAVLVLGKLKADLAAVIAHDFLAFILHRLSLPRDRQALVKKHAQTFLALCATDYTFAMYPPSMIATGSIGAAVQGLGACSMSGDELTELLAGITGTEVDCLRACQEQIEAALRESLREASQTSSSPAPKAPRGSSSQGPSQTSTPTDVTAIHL
Variant,normalised enrichment score
L11H,0.0151
A4W,0.288
K5D,-0.116
C9Q,-0.109
E10S,0.0417
N6K,-0.0495
L11W,0.266
I3F,-0.0767
C9L,-0.246
C9N,-0.251
L7E,0.266
A4L,0.0735
A4R,0.412
D12L,0.18
L7P,0.0412
A4H,0.113
D12M,0.0575
C9T,0.00245
M2S,0.0027
L7M,-0.354
D12W,-0.292
N6S,-0.0415
M8C,-0.431
C9D,-0.232
D12E,-0.112

# Single results of other studies
Substance,target,assay,system,conditions,scale,measurement,result
"PhoQ, residues 284 288 289 292 302 303 SLCLSL","PhoP, residues 12 14 15 18 19 IQFRS (Escherichia coli, UniProt P23836)","Sort-seq, measured: YFP reporter",E. coli,"PhoQ-PhoP variant library, with: 10 µM Mg2+","baseline: high Mg2+ state, higher = stronger signaling",fold induction,1.71
